Published values gathered from unrelated publications.
Numbered parts are unrelated; each lists some results of a single study.

Series 1
Target: Interferon regulatory factor 7, full length, phosphomimetic (IRF7, Homo sapiens, UniProt Q92985, residues 1-503, S471D/S472D/S475D/S476D/S477D/S483D/S484D/S487D)
Method: protein-binding microarray
Molecule type: double-stranded DNA, one strand shown
Sample: in vitro
Tested at: 2200 nM top
Notes: 60-bp whole probe
Together with: salmon DNA 0.4 mg/ml
Reference: random background probes
Direction: higher = stronger binding
Constant ends, left off below: GCCTAGCAC … GTCTTGATTCGCTTGACGCTGCTG
Residues (chain): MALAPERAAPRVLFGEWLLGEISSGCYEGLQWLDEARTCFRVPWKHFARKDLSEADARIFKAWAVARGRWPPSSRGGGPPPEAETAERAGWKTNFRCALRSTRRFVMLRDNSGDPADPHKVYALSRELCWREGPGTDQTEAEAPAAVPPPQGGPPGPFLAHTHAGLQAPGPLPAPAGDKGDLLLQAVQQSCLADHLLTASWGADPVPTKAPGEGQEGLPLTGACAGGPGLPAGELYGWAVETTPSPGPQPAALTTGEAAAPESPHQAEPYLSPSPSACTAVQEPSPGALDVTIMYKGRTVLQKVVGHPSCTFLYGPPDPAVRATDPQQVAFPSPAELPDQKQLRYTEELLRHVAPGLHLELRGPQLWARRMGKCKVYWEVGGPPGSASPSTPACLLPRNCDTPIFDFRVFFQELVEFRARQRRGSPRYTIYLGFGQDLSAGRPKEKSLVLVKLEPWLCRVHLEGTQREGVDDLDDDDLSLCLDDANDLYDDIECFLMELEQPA
Under “fitted relative affinity”, `GACGGTATCTGGACTGGGGACGTGCTA` is recorded as -0.333 z-score.
`TTAGATATCAGTATCTATTAGTGCTAG` — result for “fitted relative affinity”: 0.304 z-score.
For `TTAGGTTTCGGTTCCGGTGAGTGCTAG`, “fitted relative affinity” read 11.2 z-score.
For `TTCTGAACCATTTTGGTTTTGTGCTAG`, “fitted relative affinity” read 0.675 z-score.
`GACGGTATCCTTATCCTGACGTGCTAG` — result for “fitted relative affinity”: 1.19 z-score.
`GACGGTATCGGGTATCGAGACGTGCTA`: “fitted relative affinity” -0.121 z-score.
For `GACGATATCAGTGTCGAGACGTGCTAG`, “fitted relative affinity” read 0.193 z-score.
`CCAGCTCTGATGTTGGGAAAGTGCTAG`: “fitted relative affinity” -0.0121 z-score.
`GACGATTTCAGACTGTAGACGTGCTAG`: “fitted relative affinity” 0.356 z-score.
`TTGGATCTCAGTCTCGATTAGTGCTAG`: “fitted relative affinity” 0.753 z-score.
`ATATATATCCATTATAGATGGTGCTAG` — result for “fitted relative affinity”: 0.942 z-score.
`TTAGATTTCAGTATCGATTGGTGCTAG`: “fitted relative affinity” 1.14 z-score.
`TTGGGTATCGACTATCGGTTAGTGCTA`: “fitted relative affinity” 0.803 z-score.

Series 2
Target: Sal-like protein 4, full length isoform B (SALL4, Homo sapiens, UniProt Q9UJQ4-2, residues 1-616)
Method: universal PBM
Molecule type: double-stranded DNA, one strand shown
Sample: in vitro
Tested at: not given
Notes: 8-mer, flanks averaged, mean of replicates
Direction: higher = stronger binding
Construct (chain): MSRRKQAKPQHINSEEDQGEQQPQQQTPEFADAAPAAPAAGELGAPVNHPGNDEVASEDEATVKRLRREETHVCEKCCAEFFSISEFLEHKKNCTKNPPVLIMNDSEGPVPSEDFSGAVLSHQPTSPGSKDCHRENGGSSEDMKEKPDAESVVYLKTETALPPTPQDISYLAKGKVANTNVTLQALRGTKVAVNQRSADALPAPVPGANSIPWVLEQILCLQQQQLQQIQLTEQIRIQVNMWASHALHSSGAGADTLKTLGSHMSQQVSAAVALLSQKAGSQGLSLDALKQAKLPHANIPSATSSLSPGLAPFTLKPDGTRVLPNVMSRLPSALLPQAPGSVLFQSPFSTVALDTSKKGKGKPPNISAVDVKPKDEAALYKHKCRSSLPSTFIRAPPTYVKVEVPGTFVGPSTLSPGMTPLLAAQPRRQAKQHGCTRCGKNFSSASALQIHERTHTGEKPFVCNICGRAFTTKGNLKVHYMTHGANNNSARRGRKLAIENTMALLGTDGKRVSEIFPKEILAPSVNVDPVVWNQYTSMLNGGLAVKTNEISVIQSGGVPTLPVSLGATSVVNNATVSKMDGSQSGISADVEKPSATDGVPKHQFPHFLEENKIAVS
`ACGCACCA` gave an E-score of -0.116.
`TACATCGA` gave an E-score of 0.0863.
`AGCCCCGC` gave an E-score of -0.248.
`AAGATGCG` has an E-score of -0.033.
With `CGACCGCC` the E-score was -0.289.
For `AATTGAAT`, the E-score was 0.277.
With `ATCATTTG` the E-score was 0.213.
`AGCGGTTG` has an E-score of -0.23.
`GCATAGGA` gave an E-score of -0.00083.
The E-score of `ACGCCGTA` is reported as 0.0165.
The E-score of `CGGTGGTC` is reported as -0.268.
`GAGCTTGC` has an E-score of -0.27.
`CCACCCGC` gave an E-score of -0.25.

Series 3
Target: Prothrombin, mature alpha-thrombin (F2, Homo sapiens, UniProt P00734)
Method: aptamer microarray, sandwich
Molecule type: DNA with 2'F-ANA
Sample: in vitro
Tested at: 200 nM
Notes: whole 15-mer aptamer, many near background
Together with: Cy3 exosite-II aptamer, 400 nM
Direction: higher = stronger binding
Strand: GGTTGGTGTGGTTGG
Under “mean fluorescence intensity”, `2'F-ANA at 1 5 6 7 9 12 13 14` is recorded as 57.8 a.u.
`2'F-ANA at 2 6 8 9 13 14 15`: “mean fluorescence intensity” 106 a.u.
Under “mean fluorescence intensity”, `2'F-ANA at 4 8 11 12 13 14 15` is recorded as 126 a.u.
Under “mean fluorescence intensity”, `2'F-ANA at 2 7 8 9` is recorded as 519 a.u.
`2'F-ANA at 3 5 7 8 9 10 11 13 14 15`: “mean fluorescence intensity” 75.4 a.u.
For `2'F-ANA at 1 3 4 5 9 10 11 14 15`, “mean fluorescence intensity” read 103 a.u.
`2'F-ANA at 1 3 4 5 7 8 11 13 14`: “mean fluorescence intensity” 45.8 a.u.
`2'F-ANA at 2 4 5 6 8 9 10 11 12 13` — result for “mean fluorescence intensity”: 49.6 a.u.
Under “mean fluorescence intensity”, `2'F-ANA at 1 2 7 9 10 14` is recorded as 44.9 a.u.

Further values, each from its own experiment
The fold induction of `PhoQ, residues 284 288 289 292 302 303 SMYGEC` is reported as 1.33 (PhoP, residues 12 14 15 18 19 NMSSL (Escherichia coli, UniProt P23836); Sort-seq, item: YFP reporter; E. coli; PhoQ-PhoP variant library, together with: 10 µM Mg2+; reference: high Mg2+ state, higher = stronger signaling).

Repeated from above (series 1):
For `GACGATATCAGTGTCGAGACGTGCTAG`, “fitted relative affinity” read 0.193 z-score.
`CCAGCTCTGATGTTGGGAAAGTGCTAG`: “fitted relative affinity” -0.0121 z-score.
`GACGATTTCAGACTGTAGACGTGCTAG`: “fitted relative affinity” 0.356 z-score.
`TTGGATCTCAGTCTCGATTAGTGCTAG`: “fitted relative affinity” 0.753 z-score.
`ATATATATCCATTATAGATGGTGCTAG` — result for “fitted relative affinity”: 0.942 z-score.
